Measurements collected from several papers.
A part holds a random share of what one study measured.

Block 1 — technique: universal PBM; molecule type: double-stranded DNA, one strand shown; matrix: in vitro; concentration: 600 nM; reading: higher = stronger binding
Target: Sal-like protein 4, full length isoform A (SALL4, Homo sapiens, UniProt Q9UJQ4, residues 1-1053)
Sequence of UniProt Q9UJQ4 (whole entry, looked up): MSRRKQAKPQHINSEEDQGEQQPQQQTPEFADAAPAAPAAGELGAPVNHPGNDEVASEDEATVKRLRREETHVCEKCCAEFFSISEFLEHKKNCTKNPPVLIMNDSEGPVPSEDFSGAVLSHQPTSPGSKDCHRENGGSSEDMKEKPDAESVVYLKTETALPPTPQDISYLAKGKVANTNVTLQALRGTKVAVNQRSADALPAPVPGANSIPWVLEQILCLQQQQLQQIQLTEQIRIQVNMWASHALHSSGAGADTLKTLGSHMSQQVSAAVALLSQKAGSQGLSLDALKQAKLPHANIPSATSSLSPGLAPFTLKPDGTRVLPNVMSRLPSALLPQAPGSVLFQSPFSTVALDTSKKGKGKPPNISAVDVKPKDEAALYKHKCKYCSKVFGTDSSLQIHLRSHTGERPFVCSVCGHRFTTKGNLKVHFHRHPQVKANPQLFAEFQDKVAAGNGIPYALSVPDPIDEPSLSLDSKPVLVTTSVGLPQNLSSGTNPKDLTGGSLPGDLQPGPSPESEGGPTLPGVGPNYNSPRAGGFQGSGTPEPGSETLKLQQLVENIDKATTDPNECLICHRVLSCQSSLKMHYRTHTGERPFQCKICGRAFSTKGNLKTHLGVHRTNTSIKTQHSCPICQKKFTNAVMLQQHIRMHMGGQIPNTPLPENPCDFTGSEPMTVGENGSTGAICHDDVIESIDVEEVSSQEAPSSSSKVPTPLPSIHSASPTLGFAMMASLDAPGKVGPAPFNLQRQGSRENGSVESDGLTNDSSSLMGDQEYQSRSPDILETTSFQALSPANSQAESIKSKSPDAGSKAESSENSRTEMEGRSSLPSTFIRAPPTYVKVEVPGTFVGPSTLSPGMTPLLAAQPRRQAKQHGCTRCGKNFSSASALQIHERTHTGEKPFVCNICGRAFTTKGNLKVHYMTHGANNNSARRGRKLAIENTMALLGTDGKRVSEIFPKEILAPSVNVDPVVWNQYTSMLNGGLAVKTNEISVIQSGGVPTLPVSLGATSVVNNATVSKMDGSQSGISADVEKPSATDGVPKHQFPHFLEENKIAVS
Notes: 8-mer, flanks averaged, mean of replicates
`CAACATGA` gave an E-score of 0.174.
For `AAAAGACC`, the E-score was 0.00593.
`CCAATCAA` gave an E-score of -0.014.

Mixed results
FOXP2 N-truncated, polyQ removed: Forkhead box protein P2, N-truncated, polyQ removed (FOXP2, Homo sapiens, UniProt O15409, residues 214-715)
Sequence of UniProt O15409 (214-715, unmodified, looked up): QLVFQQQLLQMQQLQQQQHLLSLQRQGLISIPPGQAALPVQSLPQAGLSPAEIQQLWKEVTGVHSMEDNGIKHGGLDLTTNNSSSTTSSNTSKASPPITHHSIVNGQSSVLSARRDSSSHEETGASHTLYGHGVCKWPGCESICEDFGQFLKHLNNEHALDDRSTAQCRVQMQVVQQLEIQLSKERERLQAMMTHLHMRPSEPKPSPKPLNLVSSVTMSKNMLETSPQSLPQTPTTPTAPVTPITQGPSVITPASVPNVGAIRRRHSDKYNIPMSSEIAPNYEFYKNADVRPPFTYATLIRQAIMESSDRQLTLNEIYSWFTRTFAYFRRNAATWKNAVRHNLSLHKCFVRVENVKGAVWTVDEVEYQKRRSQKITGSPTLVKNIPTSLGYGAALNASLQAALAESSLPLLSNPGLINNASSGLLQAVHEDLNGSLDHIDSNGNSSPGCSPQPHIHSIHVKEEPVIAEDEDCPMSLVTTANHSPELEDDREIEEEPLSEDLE
IRF7 S101K/S471D/S472D/S475D/S476D/S477D/S483D/S484D/S487D full length, phosphomimetic: Interferon regulatory factor 7, full length, phosphomimetic (IRF7, Homo sapiens, UniProt Q92985, residues 1-503, S101K/S471D/S472D/S475D/S476D/S477D/S483D/S484D/S487D)
Sequence of UniProt Q92985 (whole entry, unmodified, looked up): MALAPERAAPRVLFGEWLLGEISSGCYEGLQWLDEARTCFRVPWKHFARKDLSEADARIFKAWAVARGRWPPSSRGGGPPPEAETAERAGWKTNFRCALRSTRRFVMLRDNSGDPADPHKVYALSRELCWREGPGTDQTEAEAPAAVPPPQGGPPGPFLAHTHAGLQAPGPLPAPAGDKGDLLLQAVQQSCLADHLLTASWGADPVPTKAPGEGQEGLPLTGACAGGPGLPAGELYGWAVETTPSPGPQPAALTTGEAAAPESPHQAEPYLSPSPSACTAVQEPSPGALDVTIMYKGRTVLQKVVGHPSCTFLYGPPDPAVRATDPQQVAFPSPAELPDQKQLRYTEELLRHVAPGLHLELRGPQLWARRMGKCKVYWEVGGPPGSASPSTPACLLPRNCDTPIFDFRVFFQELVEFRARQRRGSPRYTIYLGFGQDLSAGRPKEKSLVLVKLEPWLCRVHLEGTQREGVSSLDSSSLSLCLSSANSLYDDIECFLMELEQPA
For `CGCCTGTTACGGCATCAGGGCTTTGGTTTGGGATGGCTGCTTGTTTAACAATTGTTCCGGCGGTATGAC`, “relative association constant” read 0.0301 fold (FOXP2 N-truncated, polyQ removed; MITOMI; double-stranded DNA, one strand shown, in vitro; not given, 69-bp whole dsDNA, apparent Ka, titration fit; reference: unmutated reference site, higher = stronger binding).
`GCCTAGCACGACGGTTTCGACACTAGGGACGTGCTAGTCTTGATTCGCTTGACGCTGCTG` has a log fluorescence of 3.85 z-score (IRF7 S101K/S471D/S472D/S475D/S476D/S477D/S483D/S484D/S487D full length, phosphomimetic; protein-binding microarray; double-stranded DNA, one strand shown, in vitro; 250 nM, 60-bp whole probe, together with: salmon DNA 0.4 mg/ml; reference: random background probes, higher = stronger binding).
`PhoQ, residues 284 288 289 292 302 303 QWGLFV` gave a fold induction of 20.5 (PhoP, residues 12 14 15 18 19 NMSSL (Escherichia coli, UniProt P23836); Sort-seq, refers to: YFP reporter; E. coli; PhoQ-PhoP variant library, together with: 10 µM Mg2+; reference: high Mg2+ state, higher = stronger signaling).
Under “relative association constant”, `CGCCTGTTACGGCATCAGGGCTTTGGTTTGGGATGGCTGCATGTTTACCAATTGTTCCGGCGGTATGAC` is recorded as 0.356 fold (FOXP2 N-truncated, polyQ removed; MITOMI; double-stranded DNA, one strand shown, in vitro; not given, 69-bp whole dsDNA, apparent Ka, titration fit; reference: unmutated reference site, higher = stronger binding).
With `GCCTAGCACGACGGTATCGGTTTCGGGACGTGCTAGGTCTTGATTCGCTTGACGCTGCTG` the log fluorescence was 6.77 z-score (IRF7 S101K/S471D/S472D/S475D/S476D/S477D/S483D/S484D/S487D full length, phosphomimetic; protein-binding microarray; double-stranded DNA, one strand shown, in vitro; 250 nM, 60-bp whole probe, together with: salmon DNA 0.4 mg/ml; reference: random background probes, higher = stronger binding).

Repeated from above (mixed results):
With `GCCTAGCACGACGGTATCGGTTTCGGGACGTGCTAGGTCTTGATTCGCTTGACGCTGCTG` the log fluorescence was 6.77 z-score (IRF7 S101K/S471D/S472D/S475D/S476D/S477D/S483D/S484D/S487D full length, phosphomimetic; protein-binding microarray; double-stranded DNA, one strand shown, in vitro; 250 nM, 60-bp whole probe, together with: salmon DNA 0.4 mg/ml; reference: random background probes, higher = stronger binding).
